Experimental data of several laboratories.
Compare with care: the assays were run in different laboratories. Numbers after ± are the reported error.
Cell line: MV4-11

Compound | test | conditions | scale | endpoint | value
COc1ccc(C[C@H]2COC(=O)[C@@H]2Cc2ccc(OCCCCCCC(=O)NO)c(OC)c2)cc1OC | cell growth or viability, CCK-8 | 48 h |  | IC50 | 1660 nM
CCc1cc(OC)c2nccc(N3CCc4c(cc(Cn5ccnc5)cc4-c4cn(C)nc4C(F)(F)F)C3=O)c2c1 | cell growth or viability, ATP luminescence | 5 days |  | GI50 | < 10 nM
O=C1c2c(O)ccc(O)c2C(=O)c2c(NCCNCCO)ccc(NCCNCCO)c21 |  | 72 h, with: cytotoxic drug | below 1 means synergy | combination index | 0.82 ± 0.05
CCCCNNC(=O)c1ccc(CNC(=O)c2ccccc2)cc1 | cell growth or viability, resazurin | 48 h |  | EC50 | 38 to 287 nM
COc1cccc2c1C(=O)c1c(O)c3c(c(O)c1C2=O)C[C@@](O)(C(C)=O)C[C@@H]3O[C@H]1C[C@H](N)[C@H](O)[C@H](C)O1 |  | 72 h, with: cytotoxic drug | below 1 means synergy | combination index | 0.87 ± 0.06
COc1ccc(C[C@H]2COC(=O)[C@@H]2Cc2ccc(OCC(=O)NCCCCC(=O)Nc3ccccc3N)c(OC)c2)cc1OC | cell growth or viability, CCK-8 | 48 h |  | IC50 | > 5000 nM
C[C@@H]1CN(c2ccc(-c3cc(C(=O)NCCOCCOCCOCCOCCNC(=O)/C=C/c4[nH]cc(C(=O)N[C@@H](CC(N)=O)c5ccc(F)c(Cl)c5)c4-c4ccc(Cl)cc4F)ccc3F)cc2NC(=O)c2c[nH]c(=O)cc2C(F)(F)F)C[C@H](C)N1C | cell growth or viability, ATP luminescence | 5 days |  | EC50 | 3290 nM
CCn1cc(-c2cc(Cn3ccnc3)cc3c2CCN([C@H](c2cc(C)ccn2)C2CC2)C3=O)c(C(F)(F)F)n1 | cell growth or viability, ATP luminescence | 5 days |  | GI50 | 13 nM
Cc1ccc(NC(=O)c2ccc3c(c2)CC[C@@H]3N2CCN(C)CC2)cc1C#Cc1cnc2ccc(Cl)nn12 | cell growth | 72 h |  | IC50 | > 200 nM
COc1cc(C[C@H]2C(=O)OC[C@@H]2Cc2ccc(OC)c(OC)c2)ccc1O | cell growth, CCK-8 | 48 h |  | IC50 | 4270 ± 1680 nM
CCN(c1cc(-c2ccc(CN3CCN(CCC(=O)NCCCCCCCCCCC(=O)N[C@H](C(=O)N4C[C@H](O)C[C@H]4C(=O)NCc4ccc(-c5scnc5C)cc4)C(C)(C)C)CC3)cc2)cc(C(=O)NCc2c(C)cc(C)[nH]c2=O)c1C)C1CCOCC1 | cell growth, CCK-8 | 5 days |  | IC50 | 190 nM
C[C@@H]1CN(c2ccc(-c3cc(C(=O)NCCOCCOCCOCCOCCOCCOCCNC(=O)/C=C/c4[nH]cc(C(=O)N[C@@H](CC(N)=O)c5ccc(F)c(Cl)c5)c4-c4ccc(Cl)cc4F)ccc3F)cc2NC(=O)c2ccc(F)cc2C(F)(F)F)C[C@H](C)N1C | cell growth or viability, ATP luminescence | 5 days |  | EC50 | 1460 nM
COc1cc(OC)c2nccc(N3CCc4c(cc(Cn5ccnc5)cc4-c4cn(C)nc4C(F)(F)F)C3=O)c2c1 | cell growth or viability, ATP luminescence | 5 days |  | GI50 | 18 nM

Repeated from above:
Compound | test | conditions | scale | endpoint | value
COc1ccc(C[C@H]2COC(=O)[C@@H]2Cc2ccc(OCCCCCCC(=O)NO)c(OC)c2)cc1OC | cell growth or viability, CCK-8 | 48 h |  | IC50 | 1660 nM
COc1cccc2c1C(=O)c1c(O)c3c(c(O)c1C2=O)C[C@@](O)(C(C)=O)C[C@@H]3O[C@H]1C[C@H](N)[C@H](O)[C@H](C)O1 |  | 72 h, with: cytotoxic drug | below 1 means synergy | combination index | 0.87 ± 0.06
